{"data": "Experimental data from different studies", "organism": "Pseudomonas aeruginosa"}
{"SMILES": "N=C(N)NCCC[C@H](NC(=O)[C@H](CCCNC(=N)N)NC(=O)[C@H](CCCNC(=N)N)NC(=O)[C@@H](N)CCCNC(=N)N)C(=O)N[C@@H](Cc1c[nH]c2ccccc12)C(=O)N[C@@H](Cc1c[nH]c2ccccc12)C(=O)N[C@@H](Cc1c[nH]c2ccccc12)C(=O)O", "test": "broth microdilution", "test system": "PAO1", "setting": "37 °C", "MIC": "150 µg/mL"}
{"SMILES": "CC[C@@H](C)[C@@H](NC(=O)[C@@H](C)NC(=O)[C@@H](CCCCN)NC(=O)[C@@H](CC(C)C)NC(=O)[C@@H](C)NC(=O)[C@H](NC(=O)[C@@H](CCCCN)NC(=O)[C@@H](CC(C)C)NC(=O)[C@H](NC(=O)[C@@H](CCCCN)NC(=O)[C@@H](CCCCN)NC(=O)[C@@H](CCCCN)NC(=O)[C@@H](C)NC(=O)[C@@H](CCCCN)NC(=O)[C@@H](CO)NC(=O)[C@@H](Cc1ccccc1)NC(=O)[C@H](NC(=O)[C@@H](CCCCN)NC(=O)[C@@H](CC(C)C)NC(=O)[C@@H](Cc1ccccc1)NC(=O)[C@@H](CO)NC(=O)[C@@H](CCCCN)NC(=O)[C@@H](Cc1c[nH]c2ccccc12)NC(=O)[C@@H](CCCCN)NC(C)=O)[C@H](C)O)C(C)C)[C@H](C)O)C(=O)N[C@H](CO)C(=O)N[C@H](CCCCN)C(N)=O", "test": "broth microdilution", "test system": "PAK", "setting": "24 h, 37 °C", "MIC": "2.6 µM"}
{"SMILES": "COc1ccc2c(c1)[O][Au-]13[O]c4ccc5ccc(OC)cc5c4C=[N+]1C1CCCCC1[N+]3=C2.F[P-](F)(F)(F)(F)F (stereo not shown)", "test": "bacterial growth, broth microdilution", "test system": "carbapenem-resistant clinical isolate", "setting": "24 h", "MIC": "> 20 µM"}
{"SMILES": "S=c1n(CN2CCN(c3ccccn3)CC2)nc(C23CC4CC(CC(C4)C2)C3)n1-c1ccccc1", "test": "two-fold dilution", "test system": "IFO 3448", "setting": "24 h, 36 °C", "MIC": "4 µg/mL"}
{"SMILES": "CCCCCCCCCC(=O)NCCCC[C@@H](NC(=O)[C@@H](CC(C)C)NC(=O)[C@@H](CCCCN)NC(=O)[C@@H](CCCCNC(=O)[C@@H](CC(C)C)NC(=O)[C@@H](CCN)NC(=O)[C@@H](CCCCNC(=O)[C@@H](Cc1ccccc1)NC(=O)[C@H](N)CCCN)NC(=O)[C@@H](Cc1ccccc1)NC(=O)[C@H](N)CCCN)NC(=O)[C@@H](CC(C)C)NC(=O)[C@@H](CCN)NC(=O)[C@@H](CCCCNC(=O)[C@@H](Cc1ccccc1)NC(=O)[C@H](N)CCCN)NC(=O)[C@@H](Cc1ccccc1)NC(=O)[C@H](N)CCCN)C(N)=O", "test": "broth microdilution", "test system": "PAO1", "setting": "37 °C", "MIC": "4 µg/mL"}
{"SMILES": "COc1c(CC=C(C)C)c(O)cc2c1[C@@H]1Oc3c(ccc(O)c3CC=C(C)C)[C@@H]1CO2", "test system": "ATCC 10145", "MIC": "128 µg/mL"}
{"SMILES": "CC1(C)S[C@@H]2[C@H](NC(=O)[C@H](NC(=O)C3=C(O)C(c4ccccc4F)NC3=O)c3ccccc3)C(=O)N2[C@H]1C(=O)O (stereo partly shown)", "test": "broth microdilution", "test system": "PAO1, Mueller-Hinton broth", "setting": "with: CCCP 50 µg/mL", "MIC": "6.25 µg/mL"}
{"SMILES": "Cc1[nH]c(=O)c(CNC(=O)c2ccc(C(F)(F)F)nc2)c2c1CCCC2", "test": "agar double dilution", "test system": "clinical isolate 17-1", "MIC": "> 128 µg/mL"}
{"SMILES": "CC(=O)N[C@H](CCCCN)C(=O)N[C@H](CC(C)C)C(=O)N[C@H](CCCCN)C(=O)N[C@H](CO)C(=O)N[C@H](CC(C)C)C(=O)N[C@H](CC(C)C)C(=O)N[C@H](CCCCN)C(=O)N[C@@H](C(=O)N[C@H](CC(C)C)C(=O)N[C@H](CO)C(=O)N[C@H](CCCCN)C(=O)N[C@H](C)C(=O)N[C@H](CCCCN)C(=O)N[C@H](CCCCN)C(=O)N[C@H](CCCCN)C(=O)N[C@H](CCCCN)C(=O)N[C@H](CC(C)C)C(=O)N[C@H](CCCCN)C(=O)N[C@@H](C(=O)N[C@H](CC(C)C)C(=O)N[C@H](CC(C)C)C(=O)N[C@H](CCCCN)C(=O)N[C@H](C)C(=O)N[C@H](CC(C)C)C(=O)N[C@H](CO)C(=O)N[C@H](CCCCN)C(N)=O)[C@H](C)O)[C@H](C)O", "test": "broth microdilution", "test system": "PA14", "setting": "24 h, 37 °C", "MIC": "0.7 µM"}
{"SMILES": "COc1ccc2ccc3c(c2c1)C=[N+]1C2CCCCC2[N+]2=Cc4c(C)cccc4[O][Au-]21[O]3.F[P-](F)(F)(F)(F)F (stereo not shown)", "test": "bacterial growth, broth microdilution", "test system": "carbapenem-resistant clinical isolate", "setting": "24 h", "MIC": "> 20 µM"}
